Measured values gathered from unrelated publications.
A part holds a random share of what one study measured.

Block 1
Target: Sal-like protein 4, full length isoform A (SALL4, Homo sapiens, UniProt Q9UJQ4, residues 1-1053)
Chain of UniProt Q9UJQ4 (whole entry, looked up): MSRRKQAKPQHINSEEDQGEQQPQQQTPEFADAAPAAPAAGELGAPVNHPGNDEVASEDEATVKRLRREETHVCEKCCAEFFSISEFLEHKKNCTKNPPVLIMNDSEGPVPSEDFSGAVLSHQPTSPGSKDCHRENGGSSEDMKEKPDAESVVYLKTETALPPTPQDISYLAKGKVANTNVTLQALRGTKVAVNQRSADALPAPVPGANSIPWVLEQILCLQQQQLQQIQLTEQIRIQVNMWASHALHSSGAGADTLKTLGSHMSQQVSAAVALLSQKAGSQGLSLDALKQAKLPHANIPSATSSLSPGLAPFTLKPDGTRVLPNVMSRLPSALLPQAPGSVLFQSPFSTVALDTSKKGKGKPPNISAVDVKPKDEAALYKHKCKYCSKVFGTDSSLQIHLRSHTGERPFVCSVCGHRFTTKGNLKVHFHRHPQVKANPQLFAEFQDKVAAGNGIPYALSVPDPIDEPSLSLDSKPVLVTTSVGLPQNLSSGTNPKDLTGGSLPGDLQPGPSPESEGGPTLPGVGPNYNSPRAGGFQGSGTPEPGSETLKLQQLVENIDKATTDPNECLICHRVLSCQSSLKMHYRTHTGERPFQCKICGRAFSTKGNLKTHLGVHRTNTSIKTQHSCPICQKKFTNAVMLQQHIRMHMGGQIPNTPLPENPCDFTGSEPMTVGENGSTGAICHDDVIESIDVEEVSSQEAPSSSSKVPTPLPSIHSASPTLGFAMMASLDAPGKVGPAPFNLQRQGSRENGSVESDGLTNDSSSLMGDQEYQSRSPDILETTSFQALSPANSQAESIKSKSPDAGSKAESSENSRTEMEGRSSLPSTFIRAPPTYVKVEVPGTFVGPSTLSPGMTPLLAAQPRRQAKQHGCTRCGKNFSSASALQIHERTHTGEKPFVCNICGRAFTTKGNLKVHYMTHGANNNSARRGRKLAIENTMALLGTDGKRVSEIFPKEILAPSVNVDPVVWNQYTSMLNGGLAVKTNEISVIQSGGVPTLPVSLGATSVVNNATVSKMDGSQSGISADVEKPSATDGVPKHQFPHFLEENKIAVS
Method: universal PBM
Molecule type: double-stranded DNA, one strand shown
Sample: in vitro
Concentration: 600 nM
Notes: 8-mer, flanks averaged, mean of replicates
Direction: higher = stronger binding
Strand | E-score
AACAGCGA | -0.108
CTACACGC | -0.174
GCATCGGC | -0.272
GCGCATCA | 0.0337
CGGATCAA | 0.0481
TAAGAAAA | 0.243
ACCTGTGA | -0.017
ACTGCAAG | -0.0153
GAGCTTAA | 0.0118

Block 2
Target: Fragile X messenger ribonucleoprotein 1, C-terminal low-complexity region (Fmr1, Mus musculus, UniProt P35922)
Method: RNA Bind-n-Seq
Molecule type: RNA
Sample: in vitro
Concentration: 200 nM
Notes: whole 134-nt RNA, ends assumed
Added: 150 mM KCl
Baseline: input library
Direction: higher = stronger binding
Shared flanks, not repeated: GGGAGUUCUACAGUCCGACGAUC … UGGAAUUCUCGGGUGUCAAGG
Strand | log2 enrichment
UUCAAAGCGUUCGAAUGAGGAGACUGAUGACUAUGGGAAGGCGCAGGUAGCCAAAAGCAGCAGCAAGGAAUCCAGGUCAUCCAAGCUCCA | -1.76
UCAAGUCCUGUGCUACACAUCGUAUGUACCGAAUCGGGAAAGGGGAAAGGAAAGGAAAGUAUUAUGUUACGCCGUUCGGAUCUGCACUUC | -0.651
UCCUGUGCUACACAUCGUAUGUACCGAAUCGGGAAAAAAAGGGAAAGGGUUUUUUUGGGAAAGUAUUAUGUUACGCCGUUCGGAUCUGCA | -0.216
GUCCUGUGCUACACAUCGUAUGUACCGAAUCGGGGAAAAAAAGGGGUUUGGGGUGGGGAAAGUAUUAUGUUACGCCGUUCGGAUCUGCAC | 0.444
UGGCCCUGGUGGCAUGCGGGGAGGAAGAGGUGGCCUCAUGGAUCGUGGUGGUCCCGGUGGAAUGUUCAGAGGUGGCCGUGGUGGAGACAU | 0.139

Block 3
Target: Transcriptional repressor CTCF (CTCF, Homo sapiens, UniProt P49711, residues 1-727, full length assumed)
Method: protein-binding microarray
Molecule type: double-stranded DNA, one strand shown
Sample: in vitro
Concentration: not given
Notes: k-mer, scored over probes, only values ≥0.25
Direction: higher = stronger binding
Residues (chain): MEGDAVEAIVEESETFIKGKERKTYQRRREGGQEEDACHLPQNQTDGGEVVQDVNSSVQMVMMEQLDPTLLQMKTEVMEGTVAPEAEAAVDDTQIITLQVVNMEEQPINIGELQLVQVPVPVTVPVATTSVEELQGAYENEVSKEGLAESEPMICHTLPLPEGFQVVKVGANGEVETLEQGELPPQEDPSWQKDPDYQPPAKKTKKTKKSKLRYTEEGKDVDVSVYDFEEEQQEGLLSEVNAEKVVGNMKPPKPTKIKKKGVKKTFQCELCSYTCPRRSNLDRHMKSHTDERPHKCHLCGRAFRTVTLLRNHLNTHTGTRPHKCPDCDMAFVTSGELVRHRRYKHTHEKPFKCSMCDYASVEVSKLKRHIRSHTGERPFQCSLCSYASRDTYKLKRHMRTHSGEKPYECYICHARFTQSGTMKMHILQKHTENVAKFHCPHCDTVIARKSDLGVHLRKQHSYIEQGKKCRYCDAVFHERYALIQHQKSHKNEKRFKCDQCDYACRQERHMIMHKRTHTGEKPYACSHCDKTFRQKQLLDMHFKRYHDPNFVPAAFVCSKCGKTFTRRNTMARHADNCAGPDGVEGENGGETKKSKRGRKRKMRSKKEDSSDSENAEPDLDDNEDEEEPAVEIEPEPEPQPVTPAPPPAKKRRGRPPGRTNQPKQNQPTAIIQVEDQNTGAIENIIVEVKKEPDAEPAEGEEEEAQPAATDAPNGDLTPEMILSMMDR
Strand | E-score
ATAATTCA | 0.342
ATGTGCAA | 0.255
ATTCACAA | 0.265
ATACACAG | 0.292

Further values, each from its own experiment
Molecule | target | assay | system | conditions | scale | quantity | result
PhoQ, residues 284 288 289 292 302 303 TSTLRA | PhoP, residues 12 14 15 18 19 AYFRS (Escherichia coli, UniProt P23836) | Sort-seq, measured: YFP reporter | E. coli | PhoQ-PhoP variant library, added: 10 µM Mg2+ | baseline: high Mg2+ state, higher = stronger signaling | fold induction | 7.02

Repeated from above (block 1):
Strand | E-score
GCATCGGC | -0.272
